{"data": "Measurements gathered from unrelated publications", "note": "Lines come from different studies, so protocols differ. ± marks the error that the study gave."}
{"Compound": "O=C(NCc1cc(F)cc(F)c1)[C@@]1(O)CCN(c2ccc3[nH]ccc3c2)C1=O", "cell line": "CNS PDX-derived tumour cells", "read-out": "colony formation", "technique": "soft agar clonogenic", "time": "8-10 days", "IC50 [µM]": 0.1}
{"Compound": "CC(C)c1cccc(C(C)C)c1N1C(=O)C2=Nc3ccccc3CN2C1=S", "cell line": "healthy human PBMCs", "read-out": "cell viability", "technique": "resazurin", "IC50 [µM]": "30.5 ± 0.5"}
{"Compound": "CCOc1cncc(-c2ccc(NC(=O)C3(c4ccnc(NS(=O)(=O)C5CC5)n4)CCOCC3)nc2)n1", "cell line": "MKN-7", "read-out": "cell proliferation", "technique": "CellTiter-Glo", "time": "72 h", "notes": "Gastric cancer", "IC50 [µM]": 10}
{"Compound": "Cc1ccc([N+](=O)[O-])cc1S(=O)(=O)N(C)/N=C/c1cnc2ccc(Br)cn12", "cell line": "M14", "read-out": "cell growth or viability", "IC50 [µM]": 0.195}
{"Compound": "O=Cc1ccc2c(c1C#Cc1ccc(O)cc1)C(c1ccc(O)cc1)(c1ccc(O)cc1)c1cc(O)ccc1-2", "cell line": "MGC-803", "read-out": "cell growth or viability", "technique": "MTT", "time": "48 h", "IC50 [µM]": "> 50"}
{"Compound": "CCC(=CCc1c(O)cc2c(c1O)C(=O)CC(c1ccc(O)cc1OC)O2)CC (centres unmarked)", "cell line": "normal pig cell line", "read-out": "cytotoxicity", "technique": "MTT", "time": "48 h", "IC50 [µM]": "11 ± 2.4"}
{"Compound": "Cn1ncc(-c2ccc3c(=O)[nH]nc(CN)c3c2)c1-c1c(F)c(Cl)cc(OC2CC2)c1C#N", "cell line": "NALM-6", "read-out": "cell viability", "action": "inhibitor", "technique": "CellTiter-Glo", "time": "120 h", "notes": "baseline-subtracted", "IC50 [µM]": 0.1}
{"Compound": "COc1cc(NC(=O)Nc2cc(C(F)(F)F)ccc2F)ccc1C(=O)Nc1ccc2[nH]ncc2c1", "cell line": "KM12", "read-out": "cell growth or viability", "technique": "ATP luminescence", "time": "72 h", "IC50 [µM]": "> 50"}
{"Compound": "CNS(=O)(=O)Nc1nccc(Cc2c(C)c3ccc(Oc4ncccc4F)cc3oc2=O)c1F", "cell line": "DMS-273", "read-out": "cell viability", "time": "7 days", "IC50 [µM]": "> 1"}
{"Compound": "CC(=O)[O][Pt]([NH2])([NH2])([Cl])([Cl])[O]C(=O)CCCc1ccccc1", "cell line": "C13* cisplatin-resistant ovarian", "read-out": "cytotoxicity", "technique": "MTT", "time": "72 h", "IC50 [µM]": "1.02 ± 0.7"}
{"Compound": "CC(C)c1ccc(N(C)c2ccc3c(c2)OCC[C@H]3CNc2cnccc2C(=O)O)cc1", "cell line": "HT-144", "read-out": "cell growth or viability", "technique": "ATP luminescence", "time": "7 days", "IC50 [µM]": "≥ 10"}
{"Compound": "C=CC(=O)N1CCCC(n2c(=O)c3ncccc3n(Cc3ccc(Oc4ccccc4)cc3)c2=O)C1 (centres unmarked)", "cell line": "KARPAS-422", "read-out": "cell growth or viability", "technique": "MTT", "time": "72 h", "IC50 [µM]": 1.5}
{"Compound": "O=C(CN1CCN(C(=O)c2ccc(C(F)(F)F)cc2)CC1)Nc1cccc(C(=O)Nc2ccc3[nH]ncc3c2)c1", "cell line": "KM12", "read-out": "cell growth or viability", "technique": "ATP luminescence", "time": "72 h", "IC50 [µM]": 28.5}
{"Compound": "C[C@H](c1ccc(Br)cc1)N1C(=O)C2=Nc3ccccc3CN2C1=S", "cell line": "healthy human PBMCs", "read-out": "cell viability", "technique": "resazurin", "IC50 [µM]": "3 ± 0.7"}
{"Compound": "CCC(=CCc1c(O)cc2c(c1O)C(=O)CC(c1ccccc1O)O2)CC (centres unmarked)", "cell line": "normal pig cell line", "read-out": "cytotoxicity", "technique": "MTT", "time": "48 h", "IC50 [µM]": "> 120"}
{"Compound": "Cc1cc(Cl)cc(-c2ccnc3cc(CN4C(=O)C5C(C4=O)C5(C)C)sc23)c1C[C@@H]1CNCCO1 (some centres unmarked)", "cell line": "Capan-1 resistant pool R(mix)", "read-out": "cell viability", "technique": "SRB", "time": "5 days", "IC50 [µM]": "2.54 ± 0.49"}
{"Compound": "Cc1cnc2nc1Nc1cc(F)cc(c1)COC/C=C/COCc1cc(ccc1OCCN1CCCC1)N2", "cell line": "SET-2", "read-out": "cell growth or viability", "technique": "CCK-8", "IC50 [µM]": 8.06}
{"note": "Excerpt of the above:"}
{"Compound": "C=CC(=O)N1CCCC(n2c(=O)c3ncccc3n(Cc3ccc(Oc4ccccc4)cc3)c2=O)C1 (centres unmarked)", "cell line": "KARPAS-422", "read-out": "cell growth or viability", "technique": "MTT", "time": "72 h", "IC50 [µM]": 1.5}
